Measured values of several laboratories.
Each numbered part is a random draw from the data of one study; scales do not carry over between parts. Substitutions count along the parent as printed.

Set 1 — method: protein binding microarray; form: double-stranded DNA, one strand shown; sample: in vitro; concentration: not given; relative to: not given; direction: higher = stronger binding
Target: Histone acetyltransferase KAT6A, winged helix 2, GST fusion (KAT6A, Homo sapiens, UniProt Q92794, residues 85-181)
Notes: 8-mer, flanks averaged, mean of 2 arrays, mostly near background
Construct (chain): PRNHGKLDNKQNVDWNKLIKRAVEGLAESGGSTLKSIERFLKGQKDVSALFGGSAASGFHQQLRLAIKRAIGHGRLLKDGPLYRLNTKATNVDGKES
| Oligonucleotide | E-score |
| --- | --- |
| TGAGCTAA | -0.0855 |
| CACACGCG | 0.0611 |
| ACCTAAAG | 0.105 |
| CTTCTGTA | -0.0528 |
| ACACTAAA | 0.122 |
| AGCGATGC | -0.0408 |
| CTGCACGC | -0.0416 |
| AGACAACT | -0.0246 |
| GCGCGCGC | 0.357 |
| AAAACCGC | 0.0956 |
| AATCATAA | 0.0683 |
| TGCGTCAA | 0.0188 |
| ACAGCTAC | -0.162 |
| GCAGTGTA | -0.00369 |
| CACGCGCA | 0.108 |
| CCTGTGCG | 0.0846 |
| CGAACCCG | -0.00788 |
| AGTAGGTA | -0.122 |
| AATATAGC | 0.0913 |
| AGAGGGTG | 0.109 |
| CTCAAATC | -0.279 |
| GCCGTTTA | 0.106 |
| CCTAAAAC | 0.0273 |
| AACTTAGT | -0.0471 |
| GTCGGGTA | -0.0279 |

Set 2 — target: CCNB2, cyclin fold, Cln2 fusion (human); method: yeast growth competition, sequencing; sample: yeast; notes: weak parent motif; relative to: not given; direction: higher = stronger binding
Parent: CENPC docking peptide (human); VKTKKRLNFDDKV; partner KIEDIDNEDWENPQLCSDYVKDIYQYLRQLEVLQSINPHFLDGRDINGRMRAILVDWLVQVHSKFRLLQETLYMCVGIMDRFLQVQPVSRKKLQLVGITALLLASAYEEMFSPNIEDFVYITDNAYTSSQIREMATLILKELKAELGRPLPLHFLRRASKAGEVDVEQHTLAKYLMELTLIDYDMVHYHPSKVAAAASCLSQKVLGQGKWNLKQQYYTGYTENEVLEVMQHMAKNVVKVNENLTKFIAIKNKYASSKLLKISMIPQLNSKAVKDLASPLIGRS
| Variant | normalised enrichment score |
| --- | --- |
| VKTKRRLNLDDKV [K5R F9L] | 0.775 |
| VKTKKRANFDDKV [L7A] | 0.412 |
| VATKKRLNFDDKV [K2A] | 0.464 |
| VKTKARANFDDKV [K5A L7A] | 0.343 |
| VKTKKRLNADDKV [F9A] | -0.0502 |
| VKTAKRLNFDDKV [K4A] | 0.439 |
| VKTKKRLNFADKV [D10A] | -0.331 |
| VKTKKALNFDDKV [R6A] | 0.345 |
| AKTKKRLNFDDKV [V1A] | 0.267 |
| VKTKKRLNLDDKV [F9L] | 0.0237 |

Set 3 — method: RNA Bind-n-Seq; form: RNA; sample: in vitro; concentration: not given; relative to: input RNA pool; direction: higher = stronger binding
Target: RING finger protein unkempt homolog, zinc fingers 1-6, GST-SBP tag (UNK, Homo sapiens, UniProt Q9C0B0, residues 30-357)
Notes: RNA with constant flanks, human and mouse sites, ends assumed
Constant ends, left off below: GGGAGUUCUACAGUCCGACGAUC … CAACAGAGGAUUGAGCAUCA
Residues (chain): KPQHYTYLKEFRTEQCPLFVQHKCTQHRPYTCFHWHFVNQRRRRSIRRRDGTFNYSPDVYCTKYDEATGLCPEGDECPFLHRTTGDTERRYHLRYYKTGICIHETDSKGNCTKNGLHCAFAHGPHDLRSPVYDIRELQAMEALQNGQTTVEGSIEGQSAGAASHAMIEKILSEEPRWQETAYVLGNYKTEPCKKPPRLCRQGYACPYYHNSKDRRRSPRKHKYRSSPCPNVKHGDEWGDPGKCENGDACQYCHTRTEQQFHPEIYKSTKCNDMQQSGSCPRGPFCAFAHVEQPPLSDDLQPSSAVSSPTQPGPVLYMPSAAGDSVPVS
| Oligonucleotide | bound/input enrichment [ratio] |
| --- | --- |
| UUGGAAACCAGUGCUAAGAACGCAACGAAUGUAGAACAGUCUUUCAUGACGAUGGCAGCUGAGAUUAAAAAGCGAAUGGGUCCUGGAGCUACAGCUGGUGGUGCCGAGAAGUCCAAUGUU | 0.178 |
| CAAAGCAUCCUAACAGGGUCGUUCCCAUACACAUUUGACCUGGUCAGCCUUUUCCAGGUGAAUAGCCCCAGUUCUGACAUAAAGAAAGUUUUAUUUGUAUUUUACUACUGUUUGGUCAAU | 0.909 |
| AAUAUGAUAACACAAUAUUGGCCUGAUCGGGAAGCCACACCAGGGGACAUCGCUCCAUAUACUAUUCCAGAAGAAGACCGGCAUUGUAUUCGAGAAAAUAUUGUAGAAGCCAUUAUCCAC | 0.207 |
| AUGCAUGAGCCGCCCCACAUUCCCACUCCUGUAUGUAUCGGACACAGAGACGCUCCCUCCUUCUCCUCCCCGCCACGCCAGGCCCCCGAGCCUUCCCUCUUCUUCCAGGAUCCUCCUGGG | 0.504 |
| AUUUCUGCAAUUGAGAAACAGGCACACAAGUGUGAGGAGUUGCUAAAUGCUCAGCAUCAGAGGCUCCUUGAAAUGCUAGAUACAGAGAAGGAACUGUUAAAAGAAAAAAUAAAGGAAGCU | 0.781 |
| UUGCUGAUGACUUCUUGUGGCAUUUCACACUGUAGAUGGUCACUGCCUCUCAUGUCCAUGUUAGCUAAUGGUGUAAGAUGAUGUCUUGUCAGUAUUACUGUUUUGCUAAGCUGCUUCAUU | 0.0808 |
| UUUUUCUUGUGUAUACAAGUAUAUAUUUUUGUUUGACGCGGACUAAAUCAUUUUCAUUUAAUUUCCGGUAAACAAAACCCACGCGAAUGGGCACUUGUACCCGAUCAUAAUAAAAAUGGA | 0.283 |
| UAUUUUUAUAACUAUCCAGCAGUGUGUGAAUUUUUGCAAAACAAUAAUUUGUUAUCGAUUAUUAGAGCUCAUGAAGCUCAAGAUGCAGGCUAUAGAAUGUACAGAAAAAGUCAAACUACA | 0.428 |
| GGUAUGUUACAGUCAUAGCUCAUAAGUAGCCCAUCUCUAAUUUGUAUUGUCACAAGGCCAGAAGCCAGCCUCACUCUUUCCAGCUGACAUUGAGGUGGGAGAGAAUCUCAGGGCUCCCUG | 0.232 |
| GUACAGUUAACCGUGCAGUACAGAAUGAACAGUAAAAUUAUGUCCUUAAGUAAUAAGCUGACCUAUGAGGGCAAGCUGGAGUGUGGAUCAGACAAAGUGGCCAAUGCAGUGAUAAACCUA | 0.409 |
| CGGACCCUGAUACCACGCUACUUCCGAAGCAUUUUUGAGGGGGGUGCCACAGAGCUGUACUACGUGCUCAAGCACCCCAAGGAGGCAUUCCACAGCAACUUCGUGUCCCUCGACUGUGAC | 0.0965 |

Set 4 — method: DHFR PCA, deep sequencing; sample: yeast; together with: (+)-ABA 17 µM; relative to: wild-type fitted maximum; direction: higher = stronger binding
Target: ABI1, truncated, D143A, DHFR fusion (Arabidopsis thaliana)
Notes: methotrexate growth selection, single substitutions
Parent: PYL1, truncated, DHFR fusion (Arabidopsis thaliana); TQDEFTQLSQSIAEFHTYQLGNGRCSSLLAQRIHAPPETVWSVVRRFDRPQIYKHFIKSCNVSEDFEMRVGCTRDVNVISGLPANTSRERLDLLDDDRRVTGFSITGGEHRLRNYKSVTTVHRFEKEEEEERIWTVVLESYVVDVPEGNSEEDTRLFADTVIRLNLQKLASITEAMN; partner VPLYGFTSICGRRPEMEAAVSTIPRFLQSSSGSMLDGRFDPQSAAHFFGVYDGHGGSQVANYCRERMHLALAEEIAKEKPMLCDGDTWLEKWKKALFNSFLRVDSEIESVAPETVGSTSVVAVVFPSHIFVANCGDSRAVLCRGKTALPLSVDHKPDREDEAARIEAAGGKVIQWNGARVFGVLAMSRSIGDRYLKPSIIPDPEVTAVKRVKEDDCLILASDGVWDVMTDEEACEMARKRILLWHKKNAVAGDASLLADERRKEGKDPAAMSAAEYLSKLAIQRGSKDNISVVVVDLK
| Variant | relative binding score [%] |
| --- | --- |
| E67S | 79.3 |
| R49W | 9.99 |
| G108A | -0.245 |
| L164D | 11.4 |
| K126R | 93.6 |
| L169K | 1.81 |
| E64H | 84.8 |
| T173S | 85.2 |
| E89A | -20.6 |
| Y115L | 8.24 |
| I33D | -2.57 |
| G21N | 78 |
| L28A | 17.8 |
| V137Q | -4.92 |
| Q167Y | 42.4 |
| A35E | 12.2 |
| A158E | -5.65 |
| D96A | 6.65 |
| E147L | 76.2 |
| T6E | 92.5 |
| I105T | 37.8 |
| E174I | 31.1 |
| S140P | 3.8 |
| V143I | 6.54 |
| R69G | 76.9 |

Set 5 — method: RNA Bind-n-Seq; form: RNA; sample: in vitro; concentration: 365 nM; relative to: no-protein control; direction: higher = stronger binding
Target: RNA binding protein fox-1 homolog 2, RRM domain, GST-SBP tag (RBFOX2, Homo sapiens, UniProt O43251-10, residues 100-194)
Notes: natural RNA segment, single round, ends assumed
Constant ends, left off below: GGGAGUUCUACAGUCCGACGAUC … UGGAAUUCUCGGGUGCCAA
Construct (chain): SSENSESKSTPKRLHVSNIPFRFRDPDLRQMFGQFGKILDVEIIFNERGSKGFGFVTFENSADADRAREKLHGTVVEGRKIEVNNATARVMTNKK
| Oligonucleotide | RBNS enrichment (R) |
| --- | --- |
| AUGUACAGCUGGUGCUUAGUUUUUUUUUAAUCUAAAUUUAAUUACCUUAUUGGAUAUUUGAUAUUUGGUUAUUUAAUCACAGUCAUCUUUAACAGCUUACACUGAUUGGU | 0.525 |
| UGUUUUGCACAGACGUGGGCCUGGGCCUUCUCAGCAGCCGCCUUCUAGUUGGGGGCUAGUCGCUGAUCUGCCGGCUCCCGCCCAGCCUGUGUGGAAAGGAGGCCCACGGG | 0.208 |
| CUCCCCUGCUCACUCCAGUCACAUAGAGAAUUGGUGUUUCCCGCAGUGGGGAUGCAGCUGUUGGACAGGUAUUGGGGGCAAGGUUGGUAGGGAGGACAGACUGUCACUUG | 0.248 |
| UCCCUACCUGGUACCCUCCCUGGGUUGAGUAUGAAUGGACAGCUCAGAGACUUUGGGAAGAGAAAUUAAAACUGAAAACAAAGGAGAUAACACCCAUACUUAAGCCUGCA | 7.94 |
| AAGAUUGGGAUUAUCGUCUUCUAAGAGGUUGCUAAUGCCUUUCAUCUUGAAGUUACACAUAACUUCUUACUAGCCAGUAUGGCAAAAGUAGGCAUCUAAAGAAUAUAAAG | 0.298 |
| AUGUUUGUAUAAUAGAACAUUAAUCAUUUAUUAUAACUCAGACAAGGUGUAAAUAAAUUCAUAAUUCAAACAGCCAGUAUAUAUGCAUAUAUGGGUGUUACAUUGCAAAA | 0.785 |
| UUUCUGUGACUCUCUAAACACUUCAUCGAAACUAGAAGACUGAAUUAUGAGGAAACUAUUUGGAUUAGUGGCCAGAAACGAUGAAAUCUUAUAGAUCUUUUGACAGUUUC | 0.55 |
| UCACCAAAAUGAGCCUCAUCCCUUUAUGCAACACAUAACCUUACUGAGGGAGGGAAAUACAGAAGCCACCUUUUUAUUUCUCUUCACUGUGUACAAGUUCACUUGUUGUC | 0.261 |
| GACCAAUGUCAAGUUUCAGGUUUUGUGUGCUGCAUAUUUAACUUUUUCACUACCACUGUUAUGUCACUGGGUAAAAGCCUCAAACUGUUAAAUAUAUGGGAGACUGAUUA | 1.06 |
| UGUGGCUUGGUAUUGUGCAGAUUACCUCUUUGAUAGGUCUAGUCACCUUGUUCAGUGCCUGUCUAACAUGGCUAGCUACAAGGCAAUGUUGUCUCCUCCUAAUGUCCACC | 0.264 |
| UAAAUCCUUCAUGACCAUUCUCUUAAUUUGAACUCGUAGCUUGGGCUUUAAGGUAGCAUGGCUCGAUUGCUGUCGACUUAAUGUUCCACUGCACAGCAAUUCACGGCCAG | 2.15 |
| GAAGUAGCAUCUCCAGGCAAGCUGCCCGAGGAAGGGAACAAGUCGCAAUGUUAGAAGAUGCCAUAAAGUCACAUGGACAACUCAUGGUACUUUUUCUGGGUUGGCAAUUU | 0.486 |

Some of these lines once more (set 1):
| Oligonucleotide | E-score |
| --- | --- |
| CACACGCG | 0.0611 |
| ACCTAAAG | 0.105 |
| CTTCTGTA | -0.0528 |
| ACACTAAA | 0.122 |
| AGCGATGC | -0.0408 |
| CTGCACGC | -0.0416 |
| AGACAACT | -0.0246 |
| GCGCGCGC | 0.357 |
| AAAACCGC | 0.0956 |
| AATCATAA | 0.0683 |
| TGCGTCAA | 0.0188 |
| ACAGCTAC | -0.162 |
| GCAGTGTA | -0.00369 |
| CACGCGCA | 0.108 |
